Measurements collected from several papers.
Each numbered part is a random draw from the data of one study; scales do not carry over between parts.
Sequence of UniProt Q13554 (whole entry, looked up): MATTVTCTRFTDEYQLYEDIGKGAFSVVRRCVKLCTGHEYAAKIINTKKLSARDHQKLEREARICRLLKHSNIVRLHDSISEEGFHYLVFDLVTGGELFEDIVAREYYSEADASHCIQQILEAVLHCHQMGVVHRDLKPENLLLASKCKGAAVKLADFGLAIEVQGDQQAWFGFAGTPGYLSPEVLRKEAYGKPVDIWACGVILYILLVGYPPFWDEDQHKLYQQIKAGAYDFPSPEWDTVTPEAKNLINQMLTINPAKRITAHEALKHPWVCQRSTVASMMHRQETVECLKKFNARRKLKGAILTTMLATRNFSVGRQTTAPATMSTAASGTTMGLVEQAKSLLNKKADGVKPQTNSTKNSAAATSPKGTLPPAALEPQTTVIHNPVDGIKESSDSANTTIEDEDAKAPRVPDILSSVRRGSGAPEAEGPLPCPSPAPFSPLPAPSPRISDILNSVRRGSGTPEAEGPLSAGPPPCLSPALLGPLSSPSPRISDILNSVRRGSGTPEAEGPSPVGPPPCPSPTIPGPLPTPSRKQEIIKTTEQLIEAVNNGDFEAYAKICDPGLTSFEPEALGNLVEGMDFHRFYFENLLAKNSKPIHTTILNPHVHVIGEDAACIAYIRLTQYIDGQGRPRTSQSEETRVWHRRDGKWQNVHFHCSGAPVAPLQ
Sequence of UniProt Q96PF2 (whole entry, looked up): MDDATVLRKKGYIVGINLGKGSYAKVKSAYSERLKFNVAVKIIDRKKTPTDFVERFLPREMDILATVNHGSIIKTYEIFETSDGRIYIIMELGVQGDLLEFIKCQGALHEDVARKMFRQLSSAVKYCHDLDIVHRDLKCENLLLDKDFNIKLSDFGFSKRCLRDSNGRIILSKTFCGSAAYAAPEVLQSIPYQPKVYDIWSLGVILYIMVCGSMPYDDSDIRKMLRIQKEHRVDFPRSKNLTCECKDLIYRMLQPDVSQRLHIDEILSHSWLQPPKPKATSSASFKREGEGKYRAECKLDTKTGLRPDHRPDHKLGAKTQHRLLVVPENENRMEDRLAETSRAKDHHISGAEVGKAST
Sequence of UniProt P04049 (whole entry, looked up): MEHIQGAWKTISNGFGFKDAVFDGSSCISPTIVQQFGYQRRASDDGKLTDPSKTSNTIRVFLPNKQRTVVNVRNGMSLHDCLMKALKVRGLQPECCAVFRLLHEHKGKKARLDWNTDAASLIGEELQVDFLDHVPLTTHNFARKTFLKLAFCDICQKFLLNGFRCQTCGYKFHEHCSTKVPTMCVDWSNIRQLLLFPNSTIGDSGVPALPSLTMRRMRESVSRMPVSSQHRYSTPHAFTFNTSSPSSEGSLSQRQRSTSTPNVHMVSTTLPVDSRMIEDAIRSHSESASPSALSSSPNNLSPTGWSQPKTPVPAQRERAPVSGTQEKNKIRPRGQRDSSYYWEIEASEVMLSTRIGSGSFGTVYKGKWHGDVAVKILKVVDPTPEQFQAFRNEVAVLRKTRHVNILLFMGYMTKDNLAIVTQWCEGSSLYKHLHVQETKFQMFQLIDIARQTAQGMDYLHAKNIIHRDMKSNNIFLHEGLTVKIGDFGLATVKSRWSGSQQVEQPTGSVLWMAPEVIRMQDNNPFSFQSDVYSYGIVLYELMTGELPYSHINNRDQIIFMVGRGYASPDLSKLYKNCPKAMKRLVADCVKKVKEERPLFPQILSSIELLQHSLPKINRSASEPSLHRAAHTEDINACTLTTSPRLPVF
Sequence of UniProt O15530 (whole entry, looked up): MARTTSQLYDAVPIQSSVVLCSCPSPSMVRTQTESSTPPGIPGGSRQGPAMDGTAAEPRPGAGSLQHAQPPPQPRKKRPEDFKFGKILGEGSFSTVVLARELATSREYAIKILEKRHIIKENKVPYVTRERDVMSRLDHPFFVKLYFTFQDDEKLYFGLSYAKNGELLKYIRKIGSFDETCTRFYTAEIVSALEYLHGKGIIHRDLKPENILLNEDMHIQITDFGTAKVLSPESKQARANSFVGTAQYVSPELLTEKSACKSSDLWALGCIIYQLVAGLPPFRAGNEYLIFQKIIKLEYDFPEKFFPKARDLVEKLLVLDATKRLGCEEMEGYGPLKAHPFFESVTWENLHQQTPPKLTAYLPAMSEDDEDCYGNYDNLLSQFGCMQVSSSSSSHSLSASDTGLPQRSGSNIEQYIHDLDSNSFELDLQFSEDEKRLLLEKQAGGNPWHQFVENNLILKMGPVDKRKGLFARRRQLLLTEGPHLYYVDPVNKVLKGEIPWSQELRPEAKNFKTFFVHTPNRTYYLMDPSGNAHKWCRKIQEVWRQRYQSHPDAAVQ
Sequence of UniProt P54762 (whole entry, looked up): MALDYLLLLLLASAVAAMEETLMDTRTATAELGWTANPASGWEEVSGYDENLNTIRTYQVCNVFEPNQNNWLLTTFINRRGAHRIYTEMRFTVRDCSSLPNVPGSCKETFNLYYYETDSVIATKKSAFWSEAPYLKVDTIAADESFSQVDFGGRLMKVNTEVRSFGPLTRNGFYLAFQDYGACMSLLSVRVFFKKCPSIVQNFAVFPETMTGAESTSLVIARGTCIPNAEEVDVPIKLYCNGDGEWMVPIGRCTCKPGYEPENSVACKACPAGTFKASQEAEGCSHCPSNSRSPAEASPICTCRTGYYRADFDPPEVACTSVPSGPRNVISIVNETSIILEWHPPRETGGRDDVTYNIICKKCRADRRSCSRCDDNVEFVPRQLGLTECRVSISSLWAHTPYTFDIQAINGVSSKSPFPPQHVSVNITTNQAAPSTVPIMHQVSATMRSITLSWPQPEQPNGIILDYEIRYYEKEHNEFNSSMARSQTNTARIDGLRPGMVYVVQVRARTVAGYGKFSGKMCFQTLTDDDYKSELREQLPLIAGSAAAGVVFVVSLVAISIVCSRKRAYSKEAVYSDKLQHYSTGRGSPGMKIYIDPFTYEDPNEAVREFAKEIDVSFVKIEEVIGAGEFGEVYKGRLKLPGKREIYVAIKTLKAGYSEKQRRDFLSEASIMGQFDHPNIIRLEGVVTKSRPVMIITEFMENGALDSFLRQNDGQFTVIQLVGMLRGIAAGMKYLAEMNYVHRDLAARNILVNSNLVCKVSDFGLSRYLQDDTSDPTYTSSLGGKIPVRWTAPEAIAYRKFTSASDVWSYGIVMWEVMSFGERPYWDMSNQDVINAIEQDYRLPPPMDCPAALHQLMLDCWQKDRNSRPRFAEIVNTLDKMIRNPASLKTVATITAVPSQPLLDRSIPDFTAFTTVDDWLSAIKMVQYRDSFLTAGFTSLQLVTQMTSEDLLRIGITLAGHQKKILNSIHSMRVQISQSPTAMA
Sequence of UniProt Q9UEE5 (whole entry, looked up): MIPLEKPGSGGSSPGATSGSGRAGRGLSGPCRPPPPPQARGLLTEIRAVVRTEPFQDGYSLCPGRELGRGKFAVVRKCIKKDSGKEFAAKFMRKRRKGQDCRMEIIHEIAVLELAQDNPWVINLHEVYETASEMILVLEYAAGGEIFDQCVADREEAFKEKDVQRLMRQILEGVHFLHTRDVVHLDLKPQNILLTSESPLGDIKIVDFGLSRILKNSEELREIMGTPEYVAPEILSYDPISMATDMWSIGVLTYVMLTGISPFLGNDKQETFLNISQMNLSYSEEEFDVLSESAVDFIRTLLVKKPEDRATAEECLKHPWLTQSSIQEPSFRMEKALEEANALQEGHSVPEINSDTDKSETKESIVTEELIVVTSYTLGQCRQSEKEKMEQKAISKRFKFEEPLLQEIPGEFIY
Sequence of UniProt Q9UK32 (whole entry, looked up): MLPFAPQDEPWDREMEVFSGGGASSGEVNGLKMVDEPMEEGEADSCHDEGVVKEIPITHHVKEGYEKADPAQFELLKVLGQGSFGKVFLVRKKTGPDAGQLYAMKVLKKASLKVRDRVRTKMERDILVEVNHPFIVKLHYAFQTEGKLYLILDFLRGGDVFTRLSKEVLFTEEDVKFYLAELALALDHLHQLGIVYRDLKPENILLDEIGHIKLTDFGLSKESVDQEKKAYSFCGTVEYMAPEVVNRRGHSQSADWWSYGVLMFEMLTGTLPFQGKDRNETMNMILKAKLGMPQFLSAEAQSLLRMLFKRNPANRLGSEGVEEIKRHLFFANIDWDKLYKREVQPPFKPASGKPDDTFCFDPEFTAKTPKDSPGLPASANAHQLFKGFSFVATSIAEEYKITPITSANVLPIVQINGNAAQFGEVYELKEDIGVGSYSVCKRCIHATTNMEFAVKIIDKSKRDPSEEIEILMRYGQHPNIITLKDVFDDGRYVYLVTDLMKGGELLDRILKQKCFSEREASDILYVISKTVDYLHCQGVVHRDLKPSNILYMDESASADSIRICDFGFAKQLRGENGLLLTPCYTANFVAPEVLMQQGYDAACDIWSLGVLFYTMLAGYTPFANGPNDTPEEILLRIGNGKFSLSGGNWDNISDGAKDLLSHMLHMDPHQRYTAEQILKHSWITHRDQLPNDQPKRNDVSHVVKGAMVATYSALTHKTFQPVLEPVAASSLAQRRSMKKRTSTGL
Sequence of UniProt Q9BXA7 (whole entry, looked up): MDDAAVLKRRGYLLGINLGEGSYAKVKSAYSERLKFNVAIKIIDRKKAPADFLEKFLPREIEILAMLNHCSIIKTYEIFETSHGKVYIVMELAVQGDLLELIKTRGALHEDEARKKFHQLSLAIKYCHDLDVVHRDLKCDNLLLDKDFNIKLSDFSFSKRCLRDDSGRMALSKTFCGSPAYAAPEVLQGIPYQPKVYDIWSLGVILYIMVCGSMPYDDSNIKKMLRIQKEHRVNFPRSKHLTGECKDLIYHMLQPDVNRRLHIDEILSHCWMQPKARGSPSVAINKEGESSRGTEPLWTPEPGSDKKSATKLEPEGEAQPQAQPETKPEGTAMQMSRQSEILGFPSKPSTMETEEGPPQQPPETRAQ

Study 1
Matrix: 1,9-decadiene/PBS
pH: 7.4
`CC(C)C[C@@H]1NC(=O)[C@H](CC(C)C)NC(=O)[C@@H](CC(C)C)NC(=O)[C@@H](CC(C)C)NC(=O)[C@@H](Cc2cscn2)NC(=O)[C@H](CC(C)C)NC(=O)[C@@H](CC(C)C)NC1=O` gave a logD of 1.27.
`CC(C)C[C@@H]1NC(=O)[C@@H](C)NC(=O)[C@H](C)NC(=O)[C@H](C)NC(=O)[C@H](C(C)C)NC(=O)[C@H](CC(C)C)NC(=O)[C@@H](CC(C)C)NC1=O` has a logD of -2.1.
The logD of `CC(C)C[C@@H]1NC(=O)[C@H](C)NC(=O)[C@@H](CC(C)C)NC(=O)[C@H](C)NC(=O)[C@@H](Cc2cscn2)NC(=O)[C@H](CC(C)C)NC(=O)[C@@H](CC(C)C)NC1=O` is reported as -1.92.
With `CC(C)C[C@@H]1NC(=O)[C@H](C)NC(=O)[C@@H](CCC(=O)N2CCCC2)NC(=O)[C@H](C)NC(=O)[C@H](C)NC(=O)[C@H](CC(C)C)NC(=O)[C@H](CC(C)C)NC1=O` the logD was -3.08.
With `CC(C)C[C@@H]1NC(=O)[C@H](CC(C)C)NC(=O)[C@@H](C(C)C)NC(=O)[C@H](CC(C)C)NC(=O)[C@H](C(C)C)NC(=O)[C@H](Cc2cscn2)NC(=O)[C@H](C)NC1=O` the logD was -0.559.
The logD of `CC(C)C[C@@H]1NC(=O)[C@H](CC(C)C)NC(=O)[C@@H](CC(C)C)NC(=O)[C@H](CC(C)C)NC(=O)[C@@H](CCC(=O)N2CCCC2)NC(=O)[C@H](C)NC(=O)[C@H](C)NC1=O` is reported as -1.91.
`CC(C)C[C@@H]1NC(=O)[C@H](C)NC(=O)[C@@H](CC(C)C)NC(=O)[C@@H](CC(C)C)NC(=O)[C@H](C(C)C)NC(=O)[C@H](CC(C)C)NC(=O)[C@@H](CC(C)C)NC1=O` gave a logD of 1.85.
With `CC(C)C[C@@H]1NC(=O)[C@H](C(C)C)NC(=O)[C@H](CCC(=O)N2CCCC2)NC(=O)[C@H](CCC(=O)N2CCCC2)NC(=O)[C@@H](CCC(=O)N2CCCC2)NC(=O)[C@H](CC(C)C)NC(=O)[C@@H](CC(C)C)NC1=O` the logD was -2.28.
`CC(C)C[C@@H]1NC(=O)[C@H](C(C)C)NC(=O)[C@@H](CC(C)C)NC(=O)[C@@H](CC(C)C)NC(=O)[C@H](C(C)C)NC(=O)[C@H](CC(C)C)NC(=O)[C@@H](CC(C)C)NC1=O` gave a logD of 2.76.
`CC(C)C[C@@H]1NC(=O)[C@H](C)NC(=O)[C@H](CC(C)C)NC(=O)[C@H](C(C)C)NC(=O)[C@H](CC(C)C)NC(=O)[C@@H](CC(C)C)NC(=O)[C@H](CC(C)C)NC1=O` has a logD of 1.15.
The logD of `CC(C)C[C@@H]1NC(=O)[C@H](C)NC(=O)[C@H](C)NC(=O)[C@H](CC(C)C)NC(=O)[C@H](C(C)C)NC(=O)[C@H](CC(C)C)NC(=O)[C@@H](CC(C)C)NC1=O` is reported as -0.676.
`CC(C)C[C@@H]1NC(=O)[C@H](C)NC(=O)[C@H](CCC(=O)N2CCCC2)NC(=O)[C@@H](CCC(=O)N2CCCC2)NC(=O)[C@H](CC(C)C)NC(=O)[C@@H](CC(C)C)NC(=O)[C@H](CC(C)C)NC1=O` has a logD of -2.33.

Study 2
SMILES: COc1cc2ncnc(N3CCN(C(=O)Nc4ccc(Oc5ccccc5)cc4)CC3)c2cc1OC
Read-out: enzyme activity
Mode: inhibitor
Concentration: 0.5 µM
Reference: control
3-phosphoinositide-dependent protein kinase 1 (PDPK1, Homo sapiens, UniProt O15530) — remaining activity: 92.3%.
It gave 94.2% for remaining activity (Serine/threonine-protein kinase 16 (STK16, Homo sapiens, UniProt O75716)).
Tyrosine-protein kinase receptor UFO (AXL, Homo sapiens, UniProt P30530) — remaining activity: 91.7%.
The remaining activity was 75.4% (Homeodomain-interacting protein kinase 4 (HIPK4, Homo sapiens, UniProt Q8NE63)).
Ephrin type-B receptor 4 (EPHB4, Homo sapiens, UniProt P54760) — remaining activity: 99.3%.
For Calcium/calmodulin-dependent protein kinase type II subunit beta (CAMK2B, Homo sapiens, UniProt Q13554): remaining activity read 96.3%.
Tyrosine-protein kinase Blk (BLK, Homo sapiens, UniProt P51451) — remaining activity: 113%.
It gave 93.6% for remaining activity (Tyrosine-protein kinase Srms (SRMS, Homo sapiens, UniProt Q9H3Y6)).
It gave 105% for remaining activity (Cyclin-dependent kinase 1, with cyclin B (CDK1, Homo sapiens, UniProt P06493)).
For Homeodomain-interacting protein kinase 2 (HIPK2, Homo sapiens, UniProt Q9H2X6): remaining activity read 82.8%.
For Ribosomal protein S6 kinase alpha-6 (RPS6KA6, Homo sapiens, UniProt Q9UK32): remaining activity read 92%.
Cyclin-dependent kinase 4, with cyclin D3 (CDK4, Homo sapiens, UniProt P11802) — remaining activity: 90.3%.
The remaining activity was 101% (Serine/threonine-protein kinase WNK3 (WNK3, Homo sapiens, UniProt Q9BYP7)).
The remaining activity was 94.6% (MAP kinase-activated protein kinase 3 (MAPKAPK3, Homo sapiens, UniProt Q16644)).
Ephrin type-B receptor 1 (EPHB1, Homo sapiens, UniProt P54762) — remaining activity: 94.3%.
The remaining activity was 93.2% (Ephrin type-A receptor 4 (EPHA4, Homo sapiens, UniProt P54764)).
The remaining activity was 85.5% (Serine/threonine-protein kinase 17A (STK17A, Homo sapiens, UniProt Q9UEE5)).
Dual specificity tyrosine-phosphorylation-regulated kinase 3 (DYRK3, Homo sapiens, UniProt O43781) — remaining activity: 86.3%.
For Mitogen-activated protein kinase kinase kinase kinase 4 (MAP4K4, Homo sapiens, UniProt O95819): remaining activity read 88.4%.
The remaining activity was 79.1% (Testis-specific serine/threonine-protein kinase 2 (TSSK2, Homo sapiens, UniProt Q96PF2)).
For Cyclin-dependent kinase 6, with cyclin D3 (CDK6, Homo sapiens, UniProt Q00534): remaining activity read 100%.
The remaining activity was 89.5% (Phosphorylase b kinase gamma catalytic chain, skeletal muscle/heart isoform (PHKG1, Homo sapiens, UniProt Q16816)).
The remaining activity was 103% (cAMP-dependent protein kinase catalytic subunit gamma (PRKACG, Homo sapiens, UniProt P22612)).

Study 3
Organism: Sarcocystis neurona
Read-out: parasite activity
Concentration: concentration not given
Under activity class, `COc1ccc(C(=O)NCc2ccc(OCCN(C)C)cc2)cc1OC.Cl` is recorded as “inactive”.
Under activity class, `COc1nc(C)nc(Cl)c1NC1=NCCN1.Cl` is recorded as “inactive”.
`Nc1ncn([C@@H]2O[C@H](CO)[C@@H](O)[C@H]2O)c(=O)n1` — result for activity class: “inactive”.
For `CN1C(=O)CC[C@H]1c1cccnc1`, activity class read “inactive”.
`CN(CCO)CC(O)Cn1cnc2c1c(=O)n(C)c(=O)n2C.O=C(O)c1cccnc1` (centres unmarked) — result for activity class: “inactive”.
`CN1CCc2cc(Cl)c(O)cc2[C@@H](c2ccccc2)C1.Cl`: activity class “inactive”.
`CN[C@@H]1[C@H](O)[C@H](NC)[C@H]2O[C@@]3(O)C(=O)C[C@@H](C)O[C@H]3O[C@@H]2[C@H]1O.Cl.Cl`: activity class “inactive”.
`COc1ccc(CN2CCN(C(c3ccc(F)cc3)c3ccc(F)cc3)CC2)c(OC)c1OC.Cl.Cl` — result for activity class: “inactive”.
`CNCCC(Oc1ccc(C(F)(F)F)cc1)c1ccccc1.Cl` (centres unmarked): activity class “inactive”.
`O=C(N[C@H](CO)[C@H](O)c1ccc([N+](=O)[O-])cc1)C(Cl)Cl`: activity class “inactive”.
For `CN1C(C(=O)Nc2ccccn2)=C(O)c2ccccc2S1(=O)=O.O`, activity class read “inactive”.
Under activity class, `O=C(O[C@@H]1Cc2c(O)cc(O)cc2O[C@@H]1c1cc(O)c(O)c(O)c1)c1cc(O)c(O)c(O)c1` is recorded as “inactive”.

Study 4
Structure (SMILES): O=C(N[C@H]1CCCCC/C=C\C2C[C@@]2(C(=O)O)NC(=O)[C@@H]2C[C@@H](Oc3ccncc3)CN2C1=O)OC1CCCC1 (some centres unmarked)
Technique: competition with immobilised ligand
Concentration: 1 µM
It gave 49% for remaining binding (Epidermal growth factor receptor (EGFR, Homo sapiens, UniProt P00533, del747-750/T751S); cell-free assay).
For Serine/threonine-protein kinase Chk2 (CHEK2, Homo sapiens, UniProt O96017); binding: remaining binding read 100%.
For Cyclin-dependent kinase 13 (CDK13, Homo sapiens, UniProt Q14004); binding: remaining binding read 90%.
For Ephrin type-A receptor 8 (EPHA8, Homo sapiens, UniProt P29322); cell-free assay: remaining binding read 100%.
Activin receptor type-1B (ACVR1B, Homo sapiens, UniProt P36896); cell-free assay — remaining binding: 100%.
For Tyrosine-protein kinase ABL2 (ABL2, Homo sapiens, UniProt P42684); binding: remaining binding read 100%.
Epidermal growth factor receptor (EGFR, Homo sapiens, UniProt P00533, L858R); cell-free assay — remaining binding: 96%.
For Serine/threonine-protein kinase SBK1 (SBK1, Homo sapiens, UniProt Q52WX2); binding: remaining binding read 100%.
It gave 91% for remaining binding (Mast/stem cell growth factor receptor Kit (KIT, Homo sapiens, UniProt P10721, L576P); binding).
It gave 100% for remaining binding (Mitogen-activated protein kinase kinase kinase kinase 5 (MAP4K5, Homo sapiens, UniProt Q9Y4K4); binding).
Dual specificity mitogen-activated protein kinase kinase 5 (MAP2K5, Homo sapiens, UniProt Q13163); binding — remaining binding: 89%.
For Serine/threonine-protein kinase VRK2 (VRK2, Homo sapiens, UniProt Q86Y07); binding: remaining binding read 100%.
It gave 99% for remaining binding (Non-receptor tyrosine-protein kinase TYK2, JH2 (TYK2, Homo sapiens, UniProt P29597); binding).
Epidermal growth factor receptor (EGFR, Homo sapiens, UniProt P00533, T790M); cell-free assay — remaining binding: 91%.
RAF proto-oncogene serine/threonine-protein kinase (RAF1, Homo sapiens, UniProt P04049); binding — remaining binding: 100%.
For Death-associated protein kinase 3 (DAPK3, Homo sapiens, UniProt O43293); binding: remaining binding read 100%.
Bone morphogenetic protein receptor type-1B (BMPR1B, Homo sapiens, UniProt O00238); cell-free assay — remaining binding: 95%.
It gave 98% for remaining binding (Phosphatidylinositol 4,5-bisphosphate 3-kinase catalytic subunit alpha isoform (PIK3CA, Homo sapiens, UniProt P42336); binding).
It gave 100% for remaining binding (Tyrosine-protein kinase HCK (HCK, Homo sapiens, UniProt P08631); cell-free assay).
The remaining binding was 89% (Peripheral plasma membrane protein CASK (CASK, Homo sapiens, UniProt O14936); binding).
For Testis-specific serine/threonine-protein kinase 1 (TSSK1B, Homo sapiens, UniProt Q9BXA7); binding: remaining binding read 77%.

A few entries again (study 2):
Ephrin type-B receptor 4 (EPHB4, Homo sapiens, UniProt P54760) — remaining activity: 99.3%.
The remaining activity was 93.2% (Ephrin type-A receptor 4 (EPHA4, Homo sapiens, UniProt P54764)).
The remaining activity was 89.5% (Phosphorylase b kinase gamma catalytic chain, skeletal muscle/heart isoform (PHKG1, Homo sapiens, UniProt Q16816)).
Dual specificity tyrosine-phosphorylation-regulated kinase 3 (DYRK3, Homo sapiens, UniProt O43781) — remaining activity: 86.3%.
The remaining activity was 94.6% (MAP kinase-activated protein kinase 3 (MAPKAPK3, Homo sapiens, UniProt Q16644)).
It gave 94.2% for remaining activity (Serine/threonine-protein kinase 16 (STK16, Homo sapiens, UniProt O75716)).
For Ribosomal protein S6 kinase alpha-6 (RPS6KA6, Homo sapiens, UniProt Q9UK32): remaining activity read 92%.
The remaining activity was 101% (Serine/threonine-protein kinase WNK3 (WNK3, Homo sapiens, UniProt Q9BYP7)).
Tyrosine-protein kinase Blk (BLK, Homo sapiens, UniProt P51451) — remaining activity: 113%.
It gave 105% for remaining activity (Cyclin-dependent kinase 1, with cyclin B (CDK1, Homo sapiens, UniProt P06493)).
It gave 93.6% for remaining activity (Tyrosine-protein kinase Srms (SRMS, Homo sapiens, UniProt Q9H3Y6)).
